Assay results collected from several papers.
A part holds a random share of what one study measured.
UniProt P42336, sequence (whole entry, unmodified, looked up): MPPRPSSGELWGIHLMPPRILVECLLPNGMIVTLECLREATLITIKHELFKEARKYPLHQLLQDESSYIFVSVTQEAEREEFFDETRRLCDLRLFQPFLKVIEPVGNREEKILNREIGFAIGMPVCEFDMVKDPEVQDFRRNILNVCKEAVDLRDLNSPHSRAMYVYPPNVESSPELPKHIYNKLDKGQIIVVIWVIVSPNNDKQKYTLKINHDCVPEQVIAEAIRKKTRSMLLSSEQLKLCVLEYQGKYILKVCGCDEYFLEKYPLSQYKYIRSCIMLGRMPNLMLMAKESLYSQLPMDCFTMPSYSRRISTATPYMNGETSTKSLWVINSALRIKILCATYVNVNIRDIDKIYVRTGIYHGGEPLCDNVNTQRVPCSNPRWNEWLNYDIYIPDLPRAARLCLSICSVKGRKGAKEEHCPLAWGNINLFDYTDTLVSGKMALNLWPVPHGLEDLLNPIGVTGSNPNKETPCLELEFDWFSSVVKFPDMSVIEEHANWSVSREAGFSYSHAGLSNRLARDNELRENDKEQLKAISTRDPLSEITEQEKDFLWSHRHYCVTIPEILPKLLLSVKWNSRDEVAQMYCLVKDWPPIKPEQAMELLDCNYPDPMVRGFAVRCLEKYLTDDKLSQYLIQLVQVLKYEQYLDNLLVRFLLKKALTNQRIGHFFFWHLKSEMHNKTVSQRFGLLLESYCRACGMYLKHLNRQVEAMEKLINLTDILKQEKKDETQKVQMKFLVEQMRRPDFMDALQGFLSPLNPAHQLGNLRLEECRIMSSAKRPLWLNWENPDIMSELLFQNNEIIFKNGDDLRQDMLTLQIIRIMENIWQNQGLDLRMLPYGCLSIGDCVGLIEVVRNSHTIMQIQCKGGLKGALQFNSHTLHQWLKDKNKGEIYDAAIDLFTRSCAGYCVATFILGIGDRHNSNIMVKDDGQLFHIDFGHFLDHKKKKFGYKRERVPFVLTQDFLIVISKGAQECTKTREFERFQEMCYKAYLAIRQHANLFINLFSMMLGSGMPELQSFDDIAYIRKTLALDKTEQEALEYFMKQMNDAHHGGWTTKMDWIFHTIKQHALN
UniProt O94804, sequence (whole entry, looked up): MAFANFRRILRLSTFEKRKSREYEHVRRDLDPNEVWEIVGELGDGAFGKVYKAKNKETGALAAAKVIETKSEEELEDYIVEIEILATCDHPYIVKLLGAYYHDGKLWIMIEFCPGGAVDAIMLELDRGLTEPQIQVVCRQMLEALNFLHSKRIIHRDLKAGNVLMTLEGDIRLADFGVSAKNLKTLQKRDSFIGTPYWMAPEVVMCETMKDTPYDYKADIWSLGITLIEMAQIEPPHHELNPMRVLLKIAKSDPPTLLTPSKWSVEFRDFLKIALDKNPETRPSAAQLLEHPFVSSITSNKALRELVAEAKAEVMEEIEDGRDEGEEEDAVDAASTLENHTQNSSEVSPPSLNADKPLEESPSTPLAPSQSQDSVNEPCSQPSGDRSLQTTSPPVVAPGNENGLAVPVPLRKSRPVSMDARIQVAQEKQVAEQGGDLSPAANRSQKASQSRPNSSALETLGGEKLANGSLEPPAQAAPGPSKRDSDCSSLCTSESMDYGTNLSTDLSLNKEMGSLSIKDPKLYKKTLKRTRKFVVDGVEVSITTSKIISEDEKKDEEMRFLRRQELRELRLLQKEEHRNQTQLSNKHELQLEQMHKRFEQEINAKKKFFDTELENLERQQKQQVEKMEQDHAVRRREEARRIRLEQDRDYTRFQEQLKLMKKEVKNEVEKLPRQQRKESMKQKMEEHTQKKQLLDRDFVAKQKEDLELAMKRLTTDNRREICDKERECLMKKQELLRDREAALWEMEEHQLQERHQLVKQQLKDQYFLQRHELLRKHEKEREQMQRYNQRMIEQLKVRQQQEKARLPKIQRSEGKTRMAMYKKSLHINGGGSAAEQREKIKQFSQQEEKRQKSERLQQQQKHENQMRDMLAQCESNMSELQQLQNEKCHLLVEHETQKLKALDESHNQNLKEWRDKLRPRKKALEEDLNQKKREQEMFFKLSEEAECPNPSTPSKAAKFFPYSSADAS

Set 1
SMILES: CCCCN(CCCC)C(=O)CN1C[C@@H](c2cc(OC)c3c(c2)OCO3)[C@H](C(=O)O)[C@H]1CC(C)(C)CCC
Observed: cell-free assay
Technique: competition with immobilised ligand
Concentration: 1 µM
Endpoint: remaining binding
Serine/threonine-protein kinase 10 (STK10, Homo sapiens, UniProt O94804): 82.4%
Phosphatidylinositol 4,5-bisphosphate 3-kinase catalytic subunit alpha isoform (PIK3CA, Homo sapiens, UniProt P42336, H1047Y): 92.6%
Tyrosine-protein kinase ABL1, non-phosphorylated (ABL1, Homo sapiens, UniProt P00519, H396P): 89.4%

Set 2
Cell line: mouse MPNST tumor cells
Technique: high-content immunofluorescence imaging
Measured: nuclear SOX9
Concentration: 10 µM
Time: 12 h
Setting: mean of 2 replicates
Baseline: DMSO control
Reading: higher = more nuclear SOX9
Endpoint: nuclear SOX9 intensity
O=C(OCCN1CCOCC1)C1(c2ccccc2)CCCCC1: 98.7 % of DMSO
COc1ccc(CN2C(=O)C(=O)c3cc(OC(F)(F)F)ccc32)cc1: 205 % of DMSO
CCCNCC(O)COc1ccccc1C(=O)CCc1ccccc1 (stereo not drawn): 154 % of DMSO
Cn1ncc2c(N3CCOCC3)nc(-c3cccc(O)c3)nc21: 88.2 % of DMSO
C=C1C(=O)O[C@@H]2C[C@@]3(C)CCC[C@H](C)C3=C[C@H]12: 143 % of DMSO
Cc1ccc(-n2nc(C(C)(C)C)cc2NC(=O)Nc2ccc(OCCN3CCOCC3)c3ccccc23)cc1: 119 % of DMSO
O=C(c1ccc(Cl)cc1)N(Cc1ccccc1)C1CCCCC1: 107 % of DMSO

Set 3
Target: Dual specificity tyrosine-phosphorylation-regulated kinase 1A (DYRK1A, Homo sapiens, UniProt Q13627)
Observed: enzyme activity
Mode: inhibitor
Concentration: 0.5 µM
Baseline: control
Endpoint: remaining activity
O=C1NC(=O)C(c2cn(CCCn3ccnc3)c3ccccc23)=C1Nc1ccccc1: 30.8%
O=C1NC(=O)C(c2cn(CCCO)c3ncccc23)=C1c1cnccn1: 108%
Cc1ccc(NC(=O)c2ccc(CN3CCN(C)CC3)cc2)cc1Nc1nc(-c2cccnc2)cs1: 106%
Nc1[nH]nc2nc3ccccc3nc12: 95.1%
N#CC(C#N)=C(N)/C(C#N)=C/c1ccc(O)cc1: 95.9%
O=C(CCCc1ccc(-c2ccccc2F)cc1)Nc1ccc(O)cc1: 106%
Cn1sc(=O)n(Cc2ccccc2)c1=O: 92.6%
OCC(O)CCON=C1C(c2c(O)[nH]c3ccccc23)=Nc2ccccc21 (stereo not drawn): 82.8%
CC(C)[C@H](CO)Nc1nc(Nc2cc(N)cc(Cl)c2)c2ncn(C(C)C)c2n1: 57.1%
Cn1c2ccccc2c2c3c(c4c5ccccc5n(CCC#N)c4c21)CNC3=O: 46.3%
C#Cc1cccc(Nc2ncnc3cc(OCCOC)c(OCCOC)cc23)c1: 102%
CN(C)c1ccc(C=C2C(=O)Nc3ccccc32)cc1: 103%
NCCNc1ncc(C(N)=O)c(Nc2cccc(C(F)(F)F)c2)n1: 103%

Set 4
Cell line: A-375
Concentration: 100 µM
Time: 36 h
Endpoint: viability
CCN(CC)C(=O)/C(C#N)=C/c1cc(O)c(O)c([N+](=O)[O-])c1: 81.2%
Cc1ccsc1/C=C/C1=NCCCN1C: 125%
N[C@@H](Cc1ccc(O)c(O)c1)C(=O)O: 98.9%
C[C@H](CCC(=O)O)[C@H]1CC[C@H]2[C@@H]3CC[C@@H]4C[C@H](O)CC[C@]4(C)[C@H]3C[C@H](O)[C@]12C: 102%

Excerpt of the above (set 3):
CN(C)c1ccc(C=C2C(=O)Nc3ccccc32)cc1: 103%
Cn1sc(=O)n(Cc2ccccc2)c1=O: 92.6%
